Results from different studies.
Each numbered part is a random draw from the data of one study; scales do not carry over between parts.

Sample 1
Target: Ras GTPase-activating protein-binding protein 1, C-terminal RGG region (G3BP1, Homo sapiens, UniProt Q13283)
UniProt Q13283, sequence (whole entry, looked up): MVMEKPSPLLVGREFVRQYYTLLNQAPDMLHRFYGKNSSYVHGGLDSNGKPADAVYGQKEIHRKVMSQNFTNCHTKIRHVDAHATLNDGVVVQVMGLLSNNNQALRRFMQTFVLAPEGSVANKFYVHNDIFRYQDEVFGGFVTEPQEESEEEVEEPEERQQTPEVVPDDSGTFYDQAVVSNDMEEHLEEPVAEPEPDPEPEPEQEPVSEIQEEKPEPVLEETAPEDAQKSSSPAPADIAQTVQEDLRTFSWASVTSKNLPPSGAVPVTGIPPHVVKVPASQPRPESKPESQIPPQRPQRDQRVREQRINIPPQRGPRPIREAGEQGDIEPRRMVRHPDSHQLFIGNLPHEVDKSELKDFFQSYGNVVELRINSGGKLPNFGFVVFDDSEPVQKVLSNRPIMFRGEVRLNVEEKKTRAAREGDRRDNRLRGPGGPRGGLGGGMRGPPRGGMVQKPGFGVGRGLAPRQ
Technique: RNA Bind-n-Seq
Molecule type: RNA
Medium: in vitro
Tested at: 1 µM
Setting: whole 134-nt RNA, ends assumed
Added: 150 mM KCl
Reference: input library
Reading: higher = stronger binding
Measurement: log2 enrichment
Shared flanks, not repeated: GGGAGUUCUACAGUCCGACGAUC … UGGAAUUCUCGGGUGUCAAGG
UGGCCCUGGUGGCAUGCGGGGAGGAAGAGGUGGCCUCAGGGAUCGUGGUGGUCCCGGUGGAAUGUUCAGAGGUGGCCGUGGUGGAGACAG: 2.23
UGUGCUACACAUCGUAUGUACCGAAUCGGGGAAAAAAAGGGGAAAAAGGGGAAAAAAAGGGGAAAGUAUUAUGUUACGCCGUUCGGAUCU: 0.333
AAGUCCUGUGCUACACAUCGUAUGUACCGAAUCGGAAAAAAAGGAAAAAGGUUUGGAAAGUAUUAUGUUACGCCGUUCGGAUCUGCACUU: -2.33
AGUCCUGUGCUACACAUCGUAUGUACCGAAUCGGGCCCCCGGCCCCCGGGCCCCCGGGAAAGUAUUAUGUUACGCCGUUCGGAUCUGCAC: -2.24
CUGUGCUACACAUCGUAUGUACCGAAUCGGGAAAAAAAGGGUUUUUUUGGGUUUUUUUGGGAAAGUAUUAUGUUACGCCGUUCGGAUCUG: -1.92
UGCUGGAGGCAAAAAAUGCCAGCCUGGCGUCGUCCAACAACGACUUGCAGGUGGCCGAGGAGCAGUACCAGAGGCUUAUGGCCAAGGUAG: -2.57
CUCAAGUCCUGUGCUACACAUCGUAUGUACCGAAUCGGUGGAAAAAAAGGUGGAAAGUAUUAUGUUACGCCGUUCGGAUCUGCACUUCCA: -1.1
GUCCUGUGCUACACAUCGUAUGUACCGAAUCGGGUUUUUUUGGGUUUUUGGGUUUGGGAAAGUAUUAUGUUACGCCGUUCGGAUCUGCAC: -0.223
CACAGACAACACGCACCCACUCAGACACAGAGGGAAGGGGUUGGGAUGGGGACAGGGUGCACAGCAGGGCGGGGUAGGACCCCAGCCCCU: -0.246

Sample 2
Target: RING finger protein unkempt homolog, zinc fingers 1-6, SBP tag (UNK, Homo sapiens, UniProt Q9C0B0, residues 30-357)
UniProt Q9C0B0, sequence (30-357, looked up): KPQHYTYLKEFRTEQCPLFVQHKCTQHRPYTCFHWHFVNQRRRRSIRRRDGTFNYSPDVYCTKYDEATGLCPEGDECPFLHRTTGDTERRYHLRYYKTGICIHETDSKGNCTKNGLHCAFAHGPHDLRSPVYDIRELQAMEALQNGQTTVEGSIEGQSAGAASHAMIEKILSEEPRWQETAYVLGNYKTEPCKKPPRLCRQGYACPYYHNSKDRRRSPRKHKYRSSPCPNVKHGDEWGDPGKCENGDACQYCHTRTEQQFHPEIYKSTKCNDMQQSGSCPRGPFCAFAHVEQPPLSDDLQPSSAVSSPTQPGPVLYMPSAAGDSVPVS
Technique: RNA Bind-n-Seq
Molecule type: RNA
Medium: in vitro
Tested at: 100 nM
Setting: RNA with constant flanks, vertebrate orthologous sites, ends assumed
Reference: input RNA pool
Reading: higher = stronger binding
Measurement: bound/input enrichment
Shared flanks, not repeated: GGGAGUUCUACAGUCCGACGAUC … CAACAGAGGAUUGAGCAUCA
UUCAUUACCUGAGCCGAGUGGAGGUGACAGAGUUUGAAGACAUCAAGUCAGGCUACAGAAUAGAUUUUGUAAGUGUUUAUGGUGUCACGUAACACUUUGGUGACCUAUUUUUAUUUUUUA: 0.581 ratio
AUGUAAGUAGAAAAGAAUUUUCAUCCAUCUUCCCAUUGUGAAAUUCUCUAGCACUGUAUUUAGAUUCUGGAUUUUUAUAAUUCAUGUUUAAUGUAUUAGACAUUUUUAGCCCAUAAUUAA: 0.99 ratio
CAAAUUCCCCAUUGUCACUGAGAACCACCAAAUCUGACUUUUACAUUUGGUCUCAGAAUUUAGGUUCCUGCCCUGUUGGGGUUUUUUUUUUUUUGUUUGUUUUUUUGUUUUUUUGUUUCG: 1.93 ratio
UGUAAAAUAUUUGAUGCAGUGUAUAAAUUAUCCAAGGCAGUGACUUCAGCUUUAUAUAUAUCGCUAGUUUUAAAAUCAUCUACUUUUAUUUAAACUUCUAGAUUGGAUUAUUUGCUAUUG: 0.51 ratio
CUCACUUCCAGGUUGGAUCUAGUGGAAAAGUCAUAGGAAUUGACCACAUUAAAGAGCUAGUAGAUGACUCAAUAAAUAAUGUCAGAAAGGACGAUCCAAUGCUUUUGUCUUCAGGGAGAG: 0.621 ratio
UUGAGAACAGCUCUCCAAAUAGGAAUAGUAGUAAAAAAAAUAAGCAAAAUGAUAUUUGUAUAGAAAAAACAGAAGUUAAAUCAUGUAAAGUAAAUGCUGCCAAUCUUCCAGGUCCUAAAG: 0.903 ratio
CUCUUUUCCAGGUUGGAUGUACUGGAAAAGUCAUAGGAAUUGAUCACAUUAAAGAGCUAGUAGAUGACUCAAUAAAUAAUGUCAGGAAGGAUGAUCCAACACUUCUGUCUUCAGGGAGAG: 0.978 ratio
GCAUGCACAUGCCGCUGUCACCAAAAGCAACUACCGUCUUCAAAAUCUCCAAUAGCCUUCUUAGGAUUCUCUCCCUCUUUCCCUUCUGUUCUCCCGAUGCUUUAAAUGAUUAGAAGUCCU: 2.44 ratio

Sample 3
Target: Histone acetyltransferase KAT6A, both winged helices, GST fusion (KAT6A, Homo sapiens, UniProt Q92794, residues 1-181)
Technique: protein binding microarray
Molecule type: double-stranded DNA, one strand shown
Medium: in vitro
Tested at: not given
Setting: 8-mer, flanks averaged, mean of 2 arrays, mostly near background
Reference: not given
Reading: higher = stronger binding
Measurement: E-score
Construct (chain): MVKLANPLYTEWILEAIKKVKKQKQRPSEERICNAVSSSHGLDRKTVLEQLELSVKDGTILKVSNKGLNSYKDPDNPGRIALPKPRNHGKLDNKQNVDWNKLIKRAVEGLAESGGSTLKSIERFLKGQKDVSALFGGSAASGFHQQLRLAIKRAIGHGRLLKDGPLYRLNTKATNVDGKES
ACGTTACA: -0.0371
GCTCACAC: -0.0489
ACTCCGTC: 0.111
AAGTCACC: -0.0314
GGTCTTGA: -0.0169
AATGAACA: -0.0842
CGTCAGCA: 0.0203
CGGGTAAG: 0.117
TCTTGGCA: -0.196
AGACAAAT: -0.152
ACTCTGCT: -0.24
GCCTACGA: -0.032
CTGTGGCC: -0.00975
ATGCCGGC: 0.287
AGACCCAA: -0.169
GTCATCAC: -0.101
CCTTTGCC: 0.023
AAGTCCGG: 0.0627
GAGGTTTA: 0.0126

Sample 4
Target: Interferon regulatory factor 3, full length, phosphomimetic (IRF3, Homo sapiens, UniProt Q14653, residues 1-427, S386D/S396D/S398D/S402D/T404D/S405D)
Technique: protein-binding microarray
Molecule type: double-stranded DNA, one strand shown
Medium: in vitro
Tested at: 2540 nM top
Setting: 60-bp whole probe
Added: salmon DNA 0.4 mg/ml
Reference: random background probes
Reading: higher = stronger binding
Measurement: fitted relative affinity
Shared flanks, not repeated: GCCTAGCAC … GTCTTGATTCGCTTGACGCTGCTG
Residues (chain): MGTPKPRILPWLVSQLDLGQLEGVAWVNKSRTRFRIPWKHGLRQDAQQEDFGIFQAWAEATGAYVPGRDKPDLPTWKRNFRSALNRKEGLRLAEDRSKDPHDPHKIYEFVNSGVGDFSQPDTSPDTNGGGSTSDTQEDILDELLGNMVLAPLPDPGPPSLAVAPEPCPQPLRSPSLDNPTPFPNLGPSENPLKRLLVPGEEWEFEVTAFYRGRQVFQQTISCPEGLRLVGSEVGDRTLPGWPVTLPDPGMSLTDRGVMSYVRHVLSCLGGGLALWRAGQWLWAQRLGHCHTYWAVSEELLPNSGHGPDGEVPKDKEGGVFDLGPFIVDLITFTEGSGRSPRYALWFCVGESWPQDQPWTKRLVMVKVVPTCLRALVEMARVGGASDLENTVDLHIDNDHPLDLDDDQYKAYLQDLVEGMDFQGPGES
TCATGTGTACATCTCTCACTGTGCTAG: 0.334 z-score
CTAGATTTCGGGTTTCGATTAGTGCTA: 3.36 z-score
TCCTTTATGTCCTGTCTACATGTGCTA: 1.82 z-score
TCAAATTTGAGTCACTGACTGTGCTAG: -0.121 z-score
CTTTCTCCCAAGTCTTGTTTTGTGCTA: 5.76 z-score
GACGGTATCGGGAATCGGGACGTGCTA: 1.25 z-score
TTAGGTATCCTTACCCTTTAGTGCTAG: 4.04 z-score
CCAGTTTTCTTTTCATTACTGTGCTAG: 5.75 z-score
GACCGTCTCCTACTGCTGACGTGCTAG: 1.27 z-score
AGAGAATGTGGAGAAATAGGGTGCTAG: -0.577 z-score
GACGGACTGGGTTGCGGGACGTGCTAG: -0.113 z-score

Some of these lines once more (sample 4):
TCAAATTTGAGTCACTGACTGTGCTAG: -0.121 z-score
GACGGACTGGGTTGCGGGACGTGCTAG: -0.113 z-score
TCATGTGTACATCTCTCACTGTGCTAG: 0.334 z-score
TTAGGTATCCTTACCCTTTAGTGCTAG: 4.04 z-score
GACGGTATCGGGAATCGGGACGTGCTA: 1.25 z-score
GACCGTCTCCTACTGCTGACGTGCTAG: 1.27 z-score
